# Results pooled from the literature.
# Compare with care: the assays were run in different laboratories. ± gives the spread as reported.
# HDAC1: Histone deacetylase 1 (HDAC1, Homo sapiens, UniProt Q13547)
# UniProt Q13547, sequence (whole entry, looked up): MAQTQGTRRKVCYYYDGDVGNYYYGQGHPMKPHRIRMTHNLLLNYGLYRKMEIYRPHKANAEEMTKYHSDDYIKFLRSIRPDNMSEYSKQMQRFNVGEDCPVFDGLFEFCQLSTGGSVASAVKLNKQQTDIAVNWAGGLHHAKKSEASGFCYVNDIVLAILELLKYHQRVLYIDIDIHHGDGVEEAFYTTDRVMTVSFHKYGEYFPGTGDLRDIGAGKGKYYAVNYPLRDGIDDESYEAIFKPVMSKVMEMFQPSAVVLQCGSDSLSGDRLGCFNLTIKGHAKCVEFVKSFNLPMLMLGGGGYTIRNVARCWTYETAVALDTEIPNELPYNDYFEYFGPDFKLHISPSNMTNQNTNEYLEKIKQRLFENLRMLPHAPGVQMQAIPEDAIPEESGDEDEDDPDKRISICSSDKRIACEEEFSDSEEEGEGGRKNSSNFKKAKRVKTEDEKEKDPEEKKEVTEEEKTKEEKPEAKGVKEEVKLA
# UniProt P43490, sequence (whole entry, looked up): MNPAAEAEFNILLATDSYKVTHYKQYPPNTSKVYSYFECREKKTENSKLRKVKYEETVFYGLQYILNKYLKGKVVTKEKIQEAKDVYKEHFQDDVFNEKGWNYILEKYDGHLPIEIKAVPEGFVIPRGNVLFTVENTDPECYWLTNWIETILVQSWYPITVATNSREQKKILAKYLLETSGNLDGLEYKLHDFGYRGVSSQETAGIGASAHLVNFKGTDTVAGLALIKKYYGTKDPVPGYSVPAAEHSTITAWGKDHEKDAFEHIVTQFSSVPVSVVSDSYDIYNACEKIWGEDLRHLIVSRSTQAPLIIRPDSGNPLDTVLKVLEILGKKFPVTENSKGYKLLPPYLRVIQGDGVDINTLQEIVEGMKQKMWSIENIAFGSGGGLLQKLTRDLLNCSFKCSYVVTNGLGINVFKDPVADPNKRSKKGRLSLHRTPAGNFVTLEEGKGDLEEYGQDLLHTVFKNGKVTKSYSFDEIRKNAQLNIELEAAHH
# UniProt P17787, sequence (whole entry, looked up): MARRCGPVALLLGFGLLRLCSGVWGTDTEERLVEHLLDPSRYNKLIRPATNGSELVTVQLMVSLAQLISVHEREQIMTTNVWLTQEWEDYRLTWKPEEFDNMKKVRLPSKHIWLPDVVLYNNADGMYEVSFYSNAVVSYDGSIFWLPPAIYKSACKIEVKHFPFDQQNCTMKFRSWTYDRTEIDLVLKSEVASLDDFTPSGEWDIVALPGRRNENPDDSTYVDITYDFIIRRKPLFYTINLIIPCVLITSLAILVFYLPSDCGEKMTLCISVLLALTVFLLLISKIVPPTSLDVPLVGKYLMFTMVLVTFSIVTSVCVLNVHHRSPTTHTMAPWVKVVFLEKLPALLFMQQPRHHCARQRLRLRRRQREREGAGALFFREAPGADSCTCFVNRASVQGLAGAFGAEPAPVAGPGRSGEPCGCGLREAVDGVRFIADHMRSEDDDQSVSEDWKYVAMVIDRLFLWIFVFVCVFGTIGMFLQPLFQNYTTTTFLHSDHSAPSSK
# UniProt P07711, sequence (whole entry, looked up): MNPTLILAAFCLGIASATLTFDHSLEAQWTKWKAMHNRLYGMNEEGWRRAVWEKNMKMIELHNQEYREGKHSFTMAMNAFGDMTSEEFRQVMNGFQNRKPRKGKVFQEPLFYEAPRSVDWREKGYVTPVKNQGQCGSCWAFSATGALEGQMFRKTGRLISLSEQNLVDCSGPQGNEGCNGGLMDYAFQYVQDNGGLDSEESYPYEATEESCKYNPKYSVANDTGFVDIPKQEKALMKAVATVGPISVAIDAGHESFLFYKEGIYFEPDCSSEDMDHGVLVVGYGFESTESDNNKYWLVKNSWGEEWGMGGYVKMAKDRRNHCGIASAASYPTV
# UniProt Q9NQR1, sequence (whole entry, looked up): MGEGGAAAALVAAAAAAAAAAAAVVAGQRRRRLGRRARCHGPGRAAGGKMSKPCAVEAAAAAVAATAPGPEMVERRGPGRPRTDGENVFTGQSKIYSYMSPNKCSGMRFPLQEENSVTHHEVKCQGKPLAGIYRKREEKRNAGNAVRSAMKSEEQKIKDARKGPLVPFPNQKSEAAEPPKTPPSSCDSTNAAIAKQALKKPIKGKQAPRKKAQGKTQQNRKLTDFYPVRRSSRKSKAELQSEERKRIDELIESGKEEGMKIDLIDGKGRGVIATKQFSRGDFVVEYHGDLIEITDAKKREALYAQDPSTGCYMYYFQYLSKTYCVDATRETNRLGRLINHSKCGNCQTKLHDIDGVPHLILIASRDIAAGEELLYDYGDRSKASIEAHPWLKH
# UniProt Q9NQA5, sequence (whole entry, looked up): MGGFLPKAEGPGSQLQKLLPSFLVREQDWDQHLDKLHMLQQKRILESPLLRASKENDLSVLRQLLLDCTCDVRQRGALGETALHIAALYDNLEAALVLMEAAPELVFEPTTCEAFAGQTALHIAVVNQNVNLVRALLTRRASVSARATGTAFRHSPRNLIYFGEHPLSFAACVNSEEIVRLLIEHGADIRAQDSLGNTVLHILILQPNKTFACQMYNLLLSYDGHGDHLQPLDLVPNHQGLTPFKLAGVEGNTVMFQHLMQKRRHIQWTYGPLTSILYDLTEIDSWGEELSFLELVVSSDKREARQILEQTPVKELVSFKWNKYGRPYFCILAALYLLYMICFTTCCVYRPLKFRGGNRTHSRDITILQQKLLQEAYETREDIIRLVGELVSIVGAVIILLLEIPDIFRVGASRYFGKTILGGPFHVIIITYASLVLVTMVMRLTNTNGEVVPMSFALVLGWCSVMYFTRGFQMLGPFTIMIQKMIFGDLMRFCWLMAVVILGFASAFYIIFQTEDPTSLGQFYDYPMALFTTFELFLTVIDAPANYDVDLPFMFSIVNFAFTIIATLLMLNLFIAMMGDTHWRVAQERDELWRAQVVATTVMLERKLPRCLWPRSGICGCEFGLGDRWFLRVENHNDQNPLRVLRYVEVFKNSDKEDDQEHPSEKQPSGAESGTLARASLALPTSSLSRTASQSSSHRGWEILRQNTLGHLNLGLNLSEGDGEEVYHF
# UniProt P43681, sequence (whole entry, looked up): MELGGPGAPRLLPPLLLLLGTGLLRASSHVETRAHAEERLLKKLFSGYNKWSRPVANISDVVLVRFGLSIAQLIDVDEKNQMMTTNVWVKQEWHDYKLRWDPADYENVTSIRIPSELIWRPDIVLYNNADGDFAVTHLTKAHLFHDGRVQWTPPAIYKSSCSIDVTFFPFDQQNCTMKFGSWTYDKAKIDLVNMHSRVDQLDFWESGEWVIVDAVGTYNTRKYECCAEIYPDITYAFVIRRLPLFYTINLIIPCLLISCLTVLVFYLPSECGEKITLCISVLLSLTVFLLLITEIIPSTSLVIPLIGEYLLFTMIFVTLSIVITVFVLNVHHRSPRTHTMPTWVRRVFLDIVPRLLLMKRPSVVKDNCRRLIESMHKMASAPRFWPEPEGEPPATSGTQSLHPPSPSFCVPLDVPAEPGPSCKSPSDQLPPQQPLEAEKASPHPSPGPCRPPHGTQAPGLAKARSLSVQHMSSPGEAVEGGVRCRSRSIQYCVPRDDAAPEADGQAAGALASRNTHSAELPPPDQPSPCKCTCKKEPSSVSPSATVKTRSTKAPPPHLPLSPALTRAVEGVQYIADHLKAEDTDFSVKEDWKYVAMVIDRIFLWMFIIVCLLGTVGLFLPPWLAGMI
# UniProt O08914, sequence (whole entry, looked up): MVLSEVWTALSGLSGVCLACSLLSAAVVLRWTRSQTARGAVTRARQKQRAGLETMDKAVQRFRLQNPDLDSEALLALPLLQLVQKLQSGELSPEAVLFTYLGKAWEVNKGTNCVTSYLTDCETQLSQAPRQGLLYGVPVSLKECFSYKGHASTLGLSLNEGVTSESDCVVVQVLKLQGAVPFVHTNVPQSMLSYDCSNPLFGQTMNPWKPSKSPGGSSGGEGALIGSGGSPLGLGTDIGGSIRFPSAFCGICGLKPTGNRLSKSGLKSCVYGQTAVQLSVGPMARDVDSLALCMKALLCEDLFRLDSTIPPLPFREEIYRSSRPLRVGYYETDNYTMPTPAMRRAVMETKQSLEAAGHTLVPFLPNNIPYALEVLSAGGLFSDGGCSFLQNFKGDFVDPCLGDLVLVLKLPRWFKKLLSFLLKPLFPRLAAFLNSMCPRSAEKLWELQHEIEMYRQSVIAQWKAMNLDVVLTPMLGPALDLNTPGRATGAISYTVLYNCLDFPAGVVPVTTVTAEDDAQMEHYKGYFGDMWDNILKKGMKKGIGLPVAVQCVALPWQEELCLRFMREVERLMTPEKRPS
# UniProt Q9Y6W6, sequence (whole entry, looked up): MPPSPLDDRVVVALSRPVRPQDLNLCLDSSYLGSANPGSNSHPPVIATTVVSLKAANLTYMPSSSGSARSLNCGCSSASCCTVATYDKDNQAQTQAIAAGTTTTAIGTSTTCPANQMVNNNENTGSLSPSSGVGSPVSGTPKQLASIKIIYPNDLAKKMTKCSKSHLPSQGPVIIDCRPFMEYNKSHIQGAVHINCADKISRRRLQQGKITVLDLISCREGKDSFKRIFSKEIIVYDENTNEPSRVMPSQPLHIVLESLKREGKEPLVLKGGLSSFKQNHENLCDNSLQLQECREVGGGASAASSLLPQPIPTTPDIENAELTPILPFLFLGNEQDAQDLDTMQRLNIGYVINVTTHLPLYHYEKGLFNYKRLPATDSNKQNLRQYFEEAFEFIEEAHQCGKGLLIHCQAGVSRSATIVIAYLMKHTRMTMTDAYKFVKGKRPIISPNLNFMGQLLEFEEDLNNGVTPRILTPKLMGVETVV
# UniProt P00492, sequence (whole entry, looked up): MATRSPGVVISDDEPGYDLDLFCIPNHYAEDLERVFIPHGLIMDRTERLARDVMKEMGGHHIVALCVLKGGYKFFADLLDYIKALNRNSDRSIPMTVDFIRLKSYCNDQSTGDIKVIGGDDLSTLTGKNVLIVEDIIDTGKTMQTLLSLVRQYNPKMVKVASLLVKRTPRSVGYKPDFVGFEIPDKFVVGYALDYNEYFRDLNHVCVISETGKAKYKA
Structure (SMILES),tested on,test,system,setting,how to read,endpoint,value
O=C(/C=C/c1cccc(OS(=O)(=O)Oc2ccc(Br)cc2)c1)NO,"Histone deacetylase 5 (HDAC5, Homo sapiens, UniProt Q9UQL6)","enzyme activity, inhibitor, fluorescence",,10 µM,,inhibition,29%
C=C(NC(=O)c1csc(-c2nc3c(cc2O)-c2nc(cs2)C(=O)NC(C(C)O)C(=O)NC(=C(C)OC)c2nc(cs2)C(=O)NC2c4nc(cs4)C(=O)NC(COC(=O)c4c5c6c(cccc6n4O)COC(=O)C(OC4CC(C)(O)C(N(C)C)C(C)O4)C2OC5)c2nc-3cs2)n1)C(N)=O (stereo not drawn),,,"Sprague-Dawley rat, female, plasma","intravenous infusion, 6 mg/kg, multiple doses, day 7",,Vz/F,37.3 L/kg
CCCCCC(O)/C=C/C=O (stereo not drawn),"Hypoxanthine-guanine phosphoribosyltransferase (Homo sapiens, UniProt P00492)","acylphosphate-ATP probe SILAC-ABPP, item: HPRT1",ZAK-transfected HEK293T,"100 µM, added: acylphosphate-ATP probe",reference: DMSO over compound-treated,probe labelling ratio,0.68
CC(C)C[C@H](NC(=O)[C@H](CC(C)C)NC(=O)CNC(=O)[C@H](C)NC(=O)[C@H](C)NC(=O)[C@@H](CCCNC(=N)N)NC(=O)CNC(=O)CCCCNC(=O)CCCCNC(=O)CCCCNC(=O)[C@H](CCCCN)NC(=O)[C@H](Cc1ccc(O)cc1)NC(=O)[C@@H](N)Cc1c[nH]c2ccccc12)C(N)=O,"Neuropeptides B/W receptor type 1 (NPBWR1, Homo sapiens, UniProt P48145)","calcium signal, antagonist",,10 µM,,inhibition,63%
C=CC(=O)Nc1cccc(Cn2ncc3cnc(Nc4cnn(CCOC)c4)nc32)c1,PDGFRB human,"binding, KINOMEscan",,100 nM,lower = stronger binding,percent of control,17%
C[Si]1(C[C@H](CN)CC(=O)O)CCCC1,"Delta-type opioid receptor (OPRD1, Homo sapiens, UniProt P41143)","ligand displacement, radioligand",,70 µM,,inhibition,-2%
O=C(Nc1ccc(C(F)F)cc1)[C@H](CC1CCCCC1)Nc1nn2c(=O)ccnc2s1,"Dual specificity protein phosphatase 10 (Homo sapiens, UniProt Q9Y6W6)","enzyme activity, inhibitor",,10 µM,,inhibition,-3%
CN(Cc1ccc(/C=C/C(=O)NO)cc1)CC12CC3CC(CC(C3)C1)C2,human 5-HT5a receptor,agonist radioligand binding,,0.05 µM,,inhibition,-1%
COCC(=O)N1CCc2cc(-c3csc(NC(=O)c4cc(OC)cc(OC)c4)n3)ccc21,"Glutamate receptor ionotropic, NMDA 1 (Grin1, Rattus norvegicus, UniProt P35439)","radioligand binding, glycine site",,10 µM,,inhibition,-1%
O=C(n1ccnn1)n1c2ccccc2c2ccccc21,"Fatty-acid amide hydrolase 1 (Faah, Mus musculus, UniProt O08914)","serine hydrolase activity, inhibitor, competitive gel-based ABPP",mouse T-cell proteome,"1 µM, 30 min, 37 °C",,inhibition,< 50%
C[C@@H](O)[C@H](NC(=O)c1ccc(OCc2ccccc2)cc1)C(=O)N[C@@H](CCc1ccccc1)C(=O)NCc1ccccc1Cl,"Procathepsin L (CTSL, Homo sapiens, UniProt P07711)","enzyme activity, inhibitor",,100 µM,,inhibition,33%
CN1CCN(Cc2ccc(-c3ccc(CO[C@H]4CCC[C@@H]4NC(=O)c4cc(-c5cnn(C)c5)cnc4N)cc3)cc2)CC1,"Phosphatidylinositol 4-kinase alpha (PI4KA, Homo sapiens, UniProt P42356)","enzyme activity, inhibitor",,0.1 µM,,inhibition,1%
COc1cc(O)ccc1CCC(c1ccc(O)cc1)c1cc2c(c(C)c1O)OC(c1ccc(O)cc1)CC2 (mixture of isomers),,item: RvD5,human whole blood,"3 µM, added: Escherichia coli",,amount,7 ± 1 pg/mL blood
COC1CN([C@H]2CC[C@H]([C@@]3(C)Oc4c(Cl)cc(C(=O)NCc5c(SC)cc(C)[nH]c5=O)c(C)c4O3)CC2)C1,,"RNA-seq, item: ZNF219 mouse homolog","mouse, HT-1376 xenograft, whole blood",dose not given,reference: vehicle,log2 fold change,0.807
O=C1c2sc(-c3ccc(N4CCC(CO)CC4)nc3F)nc2CCN1c1cccnc1,"Neuronal acetylcholine receptor; alpha4/beta2 (Homo sapiens, UniProt P17787+P43681)","ligand displacement, radioligand",,1 µM,,inhibition,-11%
Nc1ncc(-c2cc(-c3cnn(CC(F)(F)F)c3)ncc2F)nc1C(=O)NC1CNCC(F)C1 (stereo not drawn),PIM2,KINOMEscan,,1 µM,reference: DMSO control,remaining binding,100%
COc1cc(-c2cn(C)c(=O)c3cnccc23)cc(OC)c1CN(C)C,"CREB-binding protein (CREBBP, Homo sapiens, UniProt Q92793)",,,1 µM,,inhibition,-21.9%
Cc1nn(-c2cccc(N)c2)c(=O)c2cnc(Nc3ccc(N4CCNCC4)cc3)nc12,"Mast/stem cell growth factor receptor Kit (KIT, Homo sapiens, UniProt P10721, T670I)","enzyme activity, inhibitor",,,,IC50,> 10000 nM
CN(C)C/C=C/C(=O)Nc1ccc2nc(NCCCCCN(C)C)nc(NCCCCCCN(C)C)c2c1,"N-lysine methyltransferase KMT5A (KMT5A, Homo sapiens, UniProt Q9NQR1)","enzyme activity, inhibitor, radiometric",,50 µM,,inhibition,3%
Cc1c(COc2cc(OCc3cccc(C#N)c3)c(CNC(CO)CO)cc2Cl)cccc1-c1cccc(OCc2ccc(/C=C/C(=O)NO)cc2)c1,HDAC1,"enzyme activity, inhibitor",,1 µM,,inhibition,10.3%
C/C1=C\CC/C(C)=C/CC(C)(C)/C=C/C1,"Transient receptor potential cation channel subfamily V member 5 (TRPV5, Homo sapiens, UniProt Q9NQA5)","ion current, inhibitor, outside-out patch clamp",,"100 µM, 5 min",,inhibition,11 ± 7%
Cc1c(Cc2ccc(Cl)c(O[C@@H](C)C(=O)O)c2)c2ccc(C(=O)N[C@@H](C)c3ccc(C(C)(C)C)cc3)cc2n1C,"Peroxisome proliferator-activated receptor gamma (PPARG, Homo sapiens, UniProt P37231)","ligand displacement, TR-FRET",,,,IC50,0.72 nM
CC(=O)NCCNCc1cc(Cl)c(OCc2cccc(-c3cccc(OCCCCCC(=O)NO)c3)c2C)cc1OCc1cccc(C#N)c1,HDAC1,"enzyme activity, inhibitor",,1 µM,,inhibition,68.7%
Cn1sc(Nc2c(Cl)ccc3ncccc23)c(C#N)c1=O,"Nicotinamide phosphoribosyltransferase (NAMPT, Homo sapiens, UniProt P43490)","enzyme activity, inhibitor",,10 µM,,inhibition,1%
